Measured values of several laboratories.
Compare with care: the assays were run in different laboratories.
Organism: Acinetobacter baumannii

CC[C@H](C)[C@H](NC(=O)[C@H](C)NC(=O)[C@@H](NC(=O)[C@H](CC(=O)O)NC(=O)[C@H](CCCCN)NC(=O)[C@H](CO)NC(=O)[C@@H](NC(=O)[C@H](CC(N)=O)NC(=O)[C@H](C)NC(=O)[C@@H](NC(=O)[C@H](CCC(=O)O)NC(=O)[C@H](CCCCN)NC(=O)[C@@H](NC(=O)[C@@H](NC(=O)[C@H](Cc1c[nH]cn1)NC(=O)[C@H](CCCCN)NC(=O)[C@@H](NC(=O)[C@H](CCCCN)NC(=O)[C@H](CCCCN)NC(=O)[C@@H](NC(=O)[C@H](CC(C)C)NC(=O)[C@H](CCCCN)NC(=O)[C@H](CC(N)=O)NC(=O)[C@H](Cc1ccccc1)NC(=O)[C@H](CCCNC(=N)N)NC(=O)[C@H](CCCCN)NC(=O)[C@H](CCCNC(=N)N)NC(=O)[C@H](Cc1ccccc1)NC(=O)CN)C(C)C)C(C)C)[C@@H](C)O)[C@@H](C)CC)[C@@H](C)O)C(C)C)C(C)C)C(=O)N[C@H](C(=O)N[C@@H](C)C(=O)NCC(=O)N[C@@H](CO)C(=O)NCC(=O)N[C@H](C(=O)N[C@@H](C)C(=O)N[C@H](C(=O)NCC(=O)N[C@@H](C)C(=O)N[C@@H](C)C(=O)N[C@@H](CCSC)C(N)=O)C(C)C)C(C)C)C(C)C  MIC (broth microdilution; RKI 19/09, CAMHB with 10% mouse serum): 0.03 µg/mL
CC[C@H](C)[C@H](NC(=O)[C@@H](CCCNC(=N)N)NC(=O)[C@H](CCCNC(=N)N)NC(=O)[C@@H]1CCCN1C(=O)[C@@H]1CCCN1C(=O)[C@H](CCCNC(=N)N)NC(=O)[C@@H]1CCCN1C(=O)[C@H](CCCNC(=N)N)NC(=O)[C@@H]1CCCN1C(=O)[C@H](CC(C)C)NC(=O)[C@H](Cc1ccc(O)cc1)NC(=O)[C@@H]1CCCN1C(=O)[C@H](Cc1ccc(O)cc1)NC(=O)[C@H](CCCCN)NC(=O)[C@H](CC(=O)O)NC(=O)[C@@H](N)C(C)C)C(=O)N[C@@H](Cc1ccc(O)cc1)C(=O)N[C@@H](CC(N)=O)C(=O)N[C@H](CCCNC(=N)N)C(N)=O  MIC (broth microdilution; DSM 30008; 18 h, 37 °C, 25% MHB2): 32 µg/mL
CCCCCCCC(=O)N[C@@H](CCN)C(=O)N[C@H](C(=O)N[C@@H](CCN)C(=O)N[C@H]1CCNC(=O)[C@H](C)NC(=O)[C@H](CCN)NC(=O)[C@H](CCN)NC(=O)[C@H](CC(C)C)NC(=O)[C@@H](Cc2ccccc2)NC(=O)[C@H](CCN)NC1=O)[C@@H](C)O  MIC (CLSI broth microdilution; 246-01-C.246, CAMHB; 20 h, 37 °C): 1 µg/mL
CC[C@H](C)[C@H](NC(=O)[C@@H](CCCNC(=N)N)NC(=O)[C@H](CCCNC(=N)N)NC(=O)[C@@H]1CCCN1C(=O)[C@@H]1CCCN1C(=O)[C@H](CCCNC(=N)N)NC(=O)[C@@H]1CCCN1C(=O)[C@H](CCCNC(=N)N)NC(=O)[C@@H]1CCCN1C(=O)[C@H](CC(C)C)NC(=O)[C@H](Cc1c[nH]c2ccccc12)NC(=O)[C@@H]1CCCN1C(=O)[C@@H]1CCCN1C(=O)[C@H](CCCCN)NC(=O)[C@H](CC(=O)O)NC(=O)[C@@H](N)C(C)C)C(=O)N[C@@H](Cc1ccc(O)cc1)C(=O)N[C@@H](CC(N)=O)C(=O)N[C@H](CCCNC(=N)N)C(N)=O  MIC (broth microdilution; DSM 30008; 18 h, 37 °C, 25% MHB2): 16 µg/mL
O=[N+]([O-])c1c(Br)c(Cl)c2cccnc2c1O  MIC (broth microdilution; carbapenem-resistant clinical isolate): 2 µg/mL
COc1c(NC(=O)c2ccc(NC(=O)c3ccc(NC(=O)[C@H](Cc4c[nH]nn4)NC(=O)c4ccc(NC(=O)/C(C)=C/c5ccc(O)cc5)cc4)cc3)c(OC)c2O)ccc(C(=O)O)c1O  MIC (microbial growth, broth dilution): 2 µg/mL
N=C(N)NCCC[C@@H]1NC(=O)[C@@H](CCCNC(=N)N)NC(=O)[C@H](CCCNC(=N)N)NC(=O)[C@@H](C(c2ccccc2)c2ccccc2)NC(=O)[C@@H](C(c2ccccc2)c2ccccc2)NC(=O)[C@@H](C(c2ccccc2)c2ccccc2)NC(=O)[C@@H](CCCNC(=N)N)NC1=O  MIC (NCTC 13304, carbapenem-resistant): 16 µg/mL
CN[C@@H]1[C@H](O)[C@H](NC)[C@H]2O[C@]3(O)[C@H](O[C@@H]2[C@H]1O)O[C@H](C)C[C@H]3NC(=O)Cc1cc(Cl)ccn1  MIC (microbial growth, broth dilution; ATCC19606): > 200 µg/mL
CC[C@H](C)[C@H](NC(=O)[C@@H](CCCNC(=N)N)NC(=O)[C@H](CCCNC(=N)N)NC(=O)[C@H](CC(=O)O)NC(=O)[C@H](Cc1c[nH]c2ccccc12)NC(=O)[C@H](CCCNC(=N)N)NC(=O)[C@@H]1CCCN1C(=O)[C@H](CCCNC(=N)N)NC(=O)[C@@H]1CCCN1C(=O)[C@H](CC(C)C)NC(=O)[C@H](Cc1ccc(O)cc1)NC(=O)[C@@H]1CCCN1C(=O)[C@@H]1CCCN1C(=O)[C@H](CCCCN)NC(=O)[C@H](CC(=O)O)NC(=O)[C@@H](N)C(C)C)C(=O)N[C@@H](Cc1ccc(O)cc1)C(=O)N[C@@H](CC(N)=O)C(=O)N[C@H](CCCNC(=N)N)C(N)=O  MIC (broth microdilution; DSM 30008; 18 h, 37 °C, 25% MHB2): 64 µg/mL
CCn1c(-c2ccc(OC)cc2)c(-c2ccc(OC)cc2)n(Cc2c(C)cc(C)cc2C)c1=[Se]  MIC (broth microdilution; carbapenem-resistant; 24 h): > 40 µM
CC[C@H](C)[C@H](NC(=O)[C@H](Cc1c[nH]c2ccccc12)NC(=O)[C@H](Cc1ccc(O)cc1)NC(=O)[C@H](CCCCN)NC(=O)[C@H](CC(C)C)NC(=O)[C@H](CO)NC(=O)[C@@H](N)Cc1ccccc1)C(=O)N[C@@H](CCCNC(=N)N)C(=O)N[C@@H](Cc1ccc(O)cc1)C(=O)N[C@@H](CCCCN)C(=O)N[C@@H](CCCNC(=N)N)C(=O)N[C@@H](CCC(N)=O)C(=O)NCC(=O)N[C@@H](C)C(=O)N[C@@H](C)C(=O)N[C@@H](CCCNC(=N)N)C(=O)N[C@@H](Cc1ccccc1)C(N)=O  MIC (broth dilution; ATCC 19606): 6.3 µM
CN[C@H](CC(C)C)C(=O)N[C@H]1C(=O)N[C@@H](CC(N)=O)C(=O)N[C@H]2C(=O)N[C@H]3C(=O)N[C@H](C(=O)N[C@H](C(=O)N[C@@H](CCCNC(=N)N)C(N)=O)c4cc(O)cc(O)c4-c4cc3ccc4O)[C@H](O)c3ccc(c(Cl)c3)Oc3cc2cc(c3O[C@@H]2O[C@H](CO)[C@@H](O)[C@H](O)[C@H]2O[C@H]2C[C@](C)(NCc3ccc(OCc4cn(CC(=O)N[C@H](C(=O)N[C@@H](CCN)C(=O)N[C@H]5CCNC(=O)[C@H]([C@@H](C)O)NC(=O)[C@H](CCN)NC(=O)[C@H](CCN)NC(=O)[C@H](CC(C)C)NC(=O)[C@@H](CC(C)C)NC(=O)[C@H](CCN)NC5=O)[C@@H](C)O)nn4)c(OC)c3)[C@H](O)[C@H](C)O2)Oc2ccc(cc2Cl)[C@H]1O  MIC (broth microdilution; ATCC 17978, cation-adjusted Mueller-Hinton broth; 18 to 20 h, 37 °C, 0.002% polysorbate 80): 128 µg/mL
Oc1c(Br)cc(Br)c2nc3cc(C(F)(F)F)ccc3nc12  MIC (broth microdilution; ATCC 17978): 7.88 µg/mL
CCCCCCCC(=O)N[C@@H](CCN)C(=O)N[C@H](C(=O)N[C@@H](CCN)C(=O)N[C@H]1CCNC(=O)[C@H]([C@@H](C)O)NC(=O)[C@H](CCN)NC(=O)[C@H](CCN)NC(=O)[C@H](Cc2ccc(Cl)cc2)NC(=O)[C@@H](CC(C)C)NC(=O)[C@H](CCN)NC1=O)[C@@H](C)O  MIC (broth microdilution; ATCC 19606, colistin-susceptible): 0.125 to 0.5 µg/mL
CCCCCCCC(=O)N[C@@H](CCN)C(=O)N[C@@H](C)C(=O)N[C@@H](CCN)C(=O)N[C@H]1CCNC(=O)[C@H]([C@@H](C)O)NC(=O)[C@H](CCN)NC(=O)[C@H](CCN)NC(=O)[C@H](CC(C)C)NC(=O)[C@@H](Cc2ccccc2)NC(=O)[C@H](CCN)NC1=O  MIC (broth microdilution; ATCC 17978; 20 h, 37 °C): 256 µg/mL
CCCCCCCC(=O)N[C@@H](CCN)C(=O)N[C@H](C(=O)N[C@@H](CCN)C(=O)N[C@H]1CCNC(=O)[C@H]([C@@H](C)O)NC(=O)[C@H](CCN)NC(=O)[C@H](CCN)NC(=O)[C@H](CC(C)C)NC(=O)[C@@H](Cc2cccc(F)c2)NC(=O)[C@H](CCN)NC1=O)[C@@H](C)O  MIC (broth microdilution; colistin-resistant isolates): 4 to 8 µg/mL
CC[C@H](C)[C@H](NC(=O)[C@@H](CCCNC(=N)N)NC(=O)[C@H](CCCNC(=N)N)NC(=O)[C@@H]1CCCN1C(=O)[C@@H]1CCCN1C(=O)[C@H](CCCNC(=N)N)NC(=O)[C@@H]1CCCN1C(=O)[C@H](CCCNC(=N)N)NC(=O)[C@@H]1CCCN1C(=O)[C@H](CC(C)C)NC(=O)[C@H](Cc1ccc(O)cc1)NC(=O)[C@H](CCCNC(=N)N)NC(=O)[C@@H]1CCCN1C(=O)[C@H](CCCCN)NC(=O)[C@H](CC(=O)O)NC(=O)[C@@H](N)C(C)C)C(=O)N[C@@H](Cc1ccc(O)cc1)C(=O)N[C@@H](CC(N)=O)C(=O)N[C@H](CCCNC(=N)N)C(N)=O  MIC (broth microdilution; DSM 30008; 18 h, 37 °C, 25% MHB2): 32 µg/mL
CC(C)C[C@@H](NC(=O)[C@@H](CCCNC(=N)N)NC(=O)[C@H](N)CCCNC(=N)N)C(=O)N[C@H](CC(C)C)C(=O)N[C@H](CCCNC(=N)N)C(=O)N[C@H](CCCCN)C(=O)N[C@H](CC(C)C)C(=O)N[C@H](CCCCN)C(=O)NCC(=O)N[C@H](CCCCN)C(=O)N[C@H](CCCCN)C(=O)N[C@H](CC(C)C)C(=O)N[C@H](Cc1ccc(O)cc1)C(=O)N[C@H](CC(C)C)C(=O)N[C@H](Cc1ccc(O)cc1)C(=O)N[C@H](Cc1ccccc1)C(=O)N[C@H](CCCCN)C(=O)N[C@H](CC(C)C)C(=O)N[C@H](CCC(N)=O)C(=O)N[C@H](CC(C)C)C(=O)N[C@H](CC(C)C)C(=O)N[C@H](CCCCN)C(=O)N[C@H](CCCCN)C(N)=O  MIC (ATCC BAA1605, Mueller-Hinton broth; 24 h): 4 µM
CCCCCCCC(=O)N[C@@H](CCN)C(=O)N[C@H](C(=O)N[C@@H](CCN)C(=O)N[C@H]1CCNC(=O)[C@H]([C@@H](C)O)NC(=O)[C@H](CCN)NC(=O)[C@H](CCN)NC(=O)[C@H](CC(C)C)NC(=O)[C@@H](Cc2ccc(Br)cc2)NC(=O)[C@H](CCN)NC1=O)[C@@H](C)O  MIC (broth microdilution; ATCC 19606, colistin-susceptible): < 0.125 µg/mL

Repeated from above:
CCCCCCCC(=O)N[C@@H](CCN)C(=O)N[C@@H](C)C(=O)N[C@@H](CCN)C(=O)N[C@H]1CCNC(=O)[C@H]([C@@H](C)O)NC(=O)[C@H](CCN)NC(=O)[C@H](CCN)NC(=O)[C@H](CC(C)C)NC(=O)[C@@H](Cc2ccccc2)NC(=O)[C@H](CCN)NC1=O  MIC (broth microdilution; ATCC 17978; 20 h, 37 °C): 256 µg/mL
CCCCCCCC(=O)N[C@@H](CCN)C(=O)N[C@H](C(=O)N[C@@H](CCN)C(=O)N[C@H]1CCNC(=O)[C@H]([C@@H](C)O)NC(=O)[C@H](CCN)NC(=O)[C@H](CCN)NC(=O)[C@H](CC(C)C)NC(=O)[C@@H](Cc2cccc(F)c2)NC(=O)[C@H](CCN)NC1=O)[C@@H](C)O  MIC (broth microdilution; colistin-resistant isolates): 4 to 8 µg/mL
CC[C@H](C)[C@H](NC(=O)[C@@H](CCCNC(=N)N)NC(=O)[C@H](CCCNC(=N)N)NC(=O)[C@@H]1CCCN1C(=O)[C@@H]1CCCN1C(=O)[C@H](CCCNC(=N)N)NC(=O)[C@@H]1CCCN1C(=O)[C@H](CCCNC(=N)N)NC(=O)[C@@H]1CCCN1C(=O)[C@H](CC(C)C)NC(=O)[C@H](Cc1ccc(O)cc1)NC(=O)[C@H](CCCNC(=N)N)NC(=O)[C@@H]1CCCN1C(=O)[C@H](CCCCN)NC(=O)[C@H](CC(=O)O)NC(=O)[C@@H](N)C(C)C)C(=O)N[C@@H](Cc1ccc(O)cc1)C(=O)N[C@@H](CC(N)=O)C(=O)N[C@H](CCCNC(=N)N)C(N)=O  MIC (broth microdilution; DSM 30008; 18 h, 37 °C, 25% MHB2): 32 µg/mL
